Assay results from different studies.
Lines come from different studies, so protocols differ. Values joined by “and” are separate records of one study, mostly repeats; a detail may differ. Numbers after ± are the reported error. Converted amounts (≈) assume the structure as drawn.

With COc1c([N+](=O)[O-])oc2ccc3ccccc3c12 the MIC90 was over 32 µg/mL (Klebsiella aerogenes; REMA).
CCOC(=O)C1(Cc2ccccc2)CN(c2ccccc2)Cc2nnn(CCCCCO)c21 (centres unmarked) gave an EC50 of over 100 µM (human adenovirus 2; viral replication; HEL).
For COc1cccc(C(=O)NN(C(=O)c2cc(C)cc(C)c2)C(C)(C)C)c1C, “developing egg count” read “no effect” (Anopheles funestus; FUMOZ resistant, females; tarsal contact, 367 mg/m^2, with DBH-M, no RME; relative to: control).
The inhibition of OC(CNC1CCCCC1)Cn1c2ccccc2c2ccccc21 (centres unmarked) is reported as 0% (Plasmodium yoelii; oxygen consumption; 17XL; 2 µM).
With Nc1ccc(S(=O)(=O)NC(=O)/C=C\c2ccccc2Cl)cc1 the IC50 was 12.9 µM (Tetrahymena pyriformis and Klebsiella pneumoniae; virulence in co-culture).
For [O-][N+]1=C(c2ccc(Cl)cc2)C2=NCCN2c2ccccc21, the MIC90 was 0.125 µg/mL (≈ 0.42 µM) (Bacteroides fragilis).
Under “LS mean viral load change”, CS(=O)(=O)CCCn1c(Cn2c(=O)n(CC(F)(F)F)c3ccncc32)cc2cc(Cl)ccc21 is recorded as -3.4 log10 copies/mL (respiratory syncytial virus; RT-qPCR; hospitalized infants 1-24 months, nasal swab; oral, 9, 6 or 5 mg/kg daily, day 4, high dose by age cohort; relative to: baseline).
For COC1=CC(c2ccc[nH]2)=N/C1=C\c1[nH]c(C)cc1Cc1ccccc1.Cl, the parasitaemia reduction was 100% (Plasmodium yoelii; CF1 mice; oral, 10 mg/kg daily for 4 days, day 5; relative to: vehicle).
For CC[C@H](C)[C@H](NC(=O)[C@H](C)NC(=O)[C@H](CCCCN)NC(=O)[C@H](CC(C)C)NC(=O)[C@H](C)NC(=O)[C@@H](NC(=O)[C@H](Cc1c[nH]cn1)NC(=O)[C@H](CC(C)C)NC(=O)[C@@H](NC(=O)[C@@H](NC(=O)[C@H](CCCCN)NC(=O)[C@H](C)NC(=O)[C@H](C)NC(=O)[C@H](CO)NC(=O)[C@H](CCCCN)NC(=O)[C@H](Cc1ccccc1)NC(=O)[C@@H](NC(=O)[C@H](CCCCN)NC(=O)[C@H](CC(C)C)NC(=O)[C@H](Cc1ccccc1)NC(=O)[C@H](CO)NC(=O)[C@H](CCCCN)NC(=O)[C@H](Cc1c[nH]c2ccccc12)NC(=O)[C@H](CCCCN)NC(C)=O)[C@@H](C)O)[C@@H](C)O)C(C)C)[C@@H](C)O)C(=O)N[C@@H](CO)C(=O)N[C@@H](CO)C(N)=O, “MIC geometric mean” read 32 µg/mL (≈ 10.9 µM) (Enterococcus faecalis; ATCC 29212).
The EC50 of COCC(=O)N1CCC[C@H](C(=O)NCc2nc(-c3ccc(C#N)cc3)cs2)C1 is reported as 45 ± 8.5 µM (Plasmodium falciparum; Dd2 β5 S27F resistant).
CN[C@H](CC(C)C)C(=O)N[C@H]1C(=O)N[C@@H](CC(N)=O)C(=O)N[C@H]2C(=O)N[C@H]3C(=O)N[C@H](C(=O)N[C@H](C(=O)O)c4cc(O)cc(O)c4-c4cc3ccc4O)[C@H](O)c3ccc(c(Cl)c3)Oc3cc2cc(c3O[C@@H]2O[C@H](CO)[C@@H](O)[C@H](O)[C@H]2O[C@H]2C[C@](C)(N)[C@H](O)[C@H](C)O2)Oc2ccc(cc2Cl)[C@H]1O has an MBC of 8 µg/mL (≈ 5.52 µM) (Staphylococcus aureus; CAAS-2019-CAAS-2019-17 clinical blaZ-resistant isolate, 25% plasma).
O=C(O)c1ccccc1O gave an IC50 of 12 µM (Tetrahymena pyriformis and Klebsiella pneumoniae; virulence in co-culture).
For Nc1ncnc2c1ncn2[C@@H]1O[C@@H]2COP(=O)(O)O[C@H]3[C@@H](O)[C@H](n4cnc5c(=O)[nH]cnc54)O[C@@H]3COP(=O)(O)O[C@H]2[C@H]1O, the fold enrichment was 2.34 (Zika virus; upregulated Reactome pathway, RNA sequencing, measured: Innate Immune System (R-HSA-168249); HFF-1; relative to: ZIKV-infected untreated).
COC1=CC(c2ccc[nH]2)=N/C1=C\c1[nH]c(Cc2ccccc2)cc1Cc1ccccc1.Cl has an ED90 of 7.81 mg/kg/day (Plasmodium yoelii; parasitaemia; mouse; 4-day treatment, parasitaemia day 5).
CC(=O)N1CCN(c2ccc(OCC3COC(Cn4ccnc4)(c4ccc(Cl)cc4Cl)O3)cc2)CC1 (centres unmarked) has an MFC of over 64 µM (Candida albicans; 56467; 48 h, 30 °C).
The exoprotease production of COc1cc(C#CC(=O)c2ccccc2)ccc1O is reported as 56% (Pseudomonas aeruginosa; 10 µM, 24 h; relative to: untreated).
For CC1(C)SC2C(NC(=O)C(NC(=O)C3=C(O)C(Cc4ccco4)NC3=O)c3ccccc3)C(=O)N2C1C(=O)O (centres unmarked), the MIC was 100 µg/mL (Escherichia coli; broth microdilution; ATCC 35218, low-level TEM-1; together with: clavulanic acid 6 µg/mL).
CCOC(=O)/C(C#N)=C(\O)c1ccc(NC(=O)c2cccs2)cc1 has an IC50 of 0.33 µM (Tetrahymena pyriformis and Klebsiella pneumoniae; virulence in co-culture).
With COc1ccc2ccc3oc([N+](=O)[O-])cc3c2c1Br the MIC90 was 0.09 µg/mL (≈ 0.279 µM) (Klebsiella aerogenes; REMA).
Cc1c2c(nn1C)CSCc1cc(n(C)n1)CSc1cc(c3ccccc3c1)OCCCc1c(C(=O)O)n(C)c3c-2c(Cl)ccc13 has a fold change of 51.6 (Staphylococcus aureus; label-free quantitative proteomics, measured: IlvC protein; SA113; concentration not given; relative to: untreated control).
CN(C)[C@@H]1C(O)=C(C(N)=O)C(=O)[C@@]2(O)C(O)=C3C(=O)c4c(O)cccc4[C@@](C)(O)[C@H]3C[C@@H]12 gave a survival of 84.5% and 87.4% and 68.5% and 78.3% and 73% (Acinetobacter baumannii; 19606, biofilm; 50 µg/mL, together with: HNP1 8 µM).
With Cn1c(=O)ccc2ccc(F)c(CCNC[C@H]3CN(c4cnc5c(n4)NC(=O)CO5)C(=O)O3)c21 the MIC50 was under 0.015 µg/mL (Ureaplasma spp.).
For O=C(COC(=O)c1n[nH]c2ccccc12)Nc1ccc(N2CCCCC2)cc1, the IC50 was 0.69 µM (Tetrahymena pyriformis and Klebsiella pneumoniae; virulence in co-culture).
COC1=CC(c2ccc[nH]2)=N/C1=C\c1cc(Cc2ccc(Cl)cc2)c(C)[nH]1.Cl gave a parasitaemia reduction of 100% (Plasmodium yoelii; CF1 mice; oral, 25 mg/kg daily for 4 days, day 5; relative to: vehicle).
With CCCCc1c([N+](=O)[O-])oc2ccc3ccccc3c12 the MIC90 was over 32 µg/mL (Klebsiella aerogenes; REMA).
Cc1ccc(N(c2ccc(NC(=O)CN(C)c3ccccc3N3CCCC3=O)cc2)C(C)C)cc1 — result for “minimum inoculum of resistance”: 7.6 log10 parasites (Plasmodium falciparum; Dd2-B2; 60 days).
